Measurements collected from several papers.
Lines come from different studies, so protocols differ. ± gives the spread as reported.
Cell line: U-251

For `CCCCN1CCN(c2ccc3[nH]c(-c4ccc5[nH]c(-c6ccc(OCC)cc6)nc5c4)nc3c2)CC1`, the growth percent was 60.5% (SRB; 10 µM, 48 h).
With `Cc1cc(=O)[nH]n1-c1nc(-c2ccc(Cl)cc2)c2c(NC(=O)c3ccccc3)nnc-2[nH]1` the cell growth was 81.7% (SRB; 10 µM, NCI60 single-dose screen; reference: untreated).
The growth percent of `CCCCN1CCN(c2ccc3[nH]c(-c4ccc5[nH]c(-c6ccc(OCC)c(OCC)c6)nc5c4)nc3c2)CC1` is reported as -61.4% (SRB; 10 µM, 48 h).
`O=C1NCCc2[nH]c(-c3ccncc3)cc21` has an IC50 of 4.57 µM (MTS; NCI60 panel).
With `CN1CCN(c2ccc3[nH]c(-c4ccc5[nH]c(-c6ccc(C(F)(F)F)cc6)nc5c4)nc3c2)CC1` the growth percent was 34.7% (SRB; 10 µM, 48 h).
For `C=CC(=O)Nc1cc(Nc2nccc(-c3cn(C)c4ccccc34)n2)c(OC)cc1N(C)CCN(C)C`, the mRNA level was ~1.5 fold (measured: PIK3CA; 30 µM, 24 h; reference: control).
`O=c1ccn(Cc2cn(-c3cc4ccccc4oc3=O)nn2)c(=O)[nH]1` has a growth percentage of 102% (10 µM, CNS cancer cell line, NCI60).
With `O=C(Nc1nnc2n3c(Cc4ccccc4)n[nH]c3nc(-c3ccc(Cl)cc3)c1-2)c1ccccc1` the cell growth was 101% (SRB; 10 µM, NCI60 single-dose screen; reference: untreated).
Under “cells in S phase”, `CC1=CC(=O)C(C(C)C)=CC1=O` is recorded as 45.5% (PI staining flow cytometry; concentration not given, 48 h).
`NNc1nc(-c2ccc(Cl)cc2)c2c(NC(=O)c3ccccc3)nnc-2[nH]1` has a cell growth of 96.8% (SRB; 10 µM, NCI60 single-dose screen; reference: untreated).
For `CCCCN1CCN(c2ccc3[nH]c(-c4ccc5[nH]c(-c6cc(OC)c(OC)c(OC)c6)nc5c4)nc3c2)CC1`, the growth percent was 56.3% (SRB; 10 µM, 48 h).
`CSc1nc(-c2ccc(Cl)cc2)c2c(NC(=O)c3ccccc3)nnc-2[nH]1` has a cell growth of 96.7% (SRB; 10 µM, NCI60 single-dose screen; reference: untreated).
`CCCCN1CCN(c2ccc3nc(-c4ccc5nc(-c6cc(OC)ccc6OC)[nH]c5c4)[nH]c3c2)CC1` gave a growth percent of 84% (SRB; 10 µM, 48 h).
`COc1ccc(-c2ccc3ncc4c(c3c2)n([C@@H]2CCN(C)CC2(F)F)c(=O)n4C)cn1` — result for “γH2AX foci induction”: 18.5 ± 5% (immunofluorescence; 30 nM, 1 h after irradiation, added: radiation 5 Gy).
Under “RPA and γH2AX foci”, `Cn1ncnc1[C@H]1c2n[nH]c(=O)c3cc(F)cc(c23)N[C@@H]1c1ccc(F)cc1` is recorded as “no effect” (immunofluorescence; 3 nM, added: temozolomide 100 µM; reference: DMSO).
For `C#C[C@@]1(O)[C@@H](CO)O[C@@H](n2cc(F)c3c(N)ncnc32)[C@@H]1O`, the TGI was 11.6 µM (SRB; NCI-60 screen).
For `O=C(Nc1nnc2n3c(=S)[nH][nH]c3nc(-c3ccc(Cl)cc3)c1-2)c1ccccc1`, the cell growth was 72.8% (SRB; 10 µM, NCI60 single-dose screen; reference: untreated).
For `Cc1cc(=O)[nH]c(=O)n1Cc1cn(-c2cc3ccccc3oc2=O)nn1`, the growth percentage was 101% (10 µM, CNS cancer cell line, NCI60).
With `CCCN1CCN(c2ccc3nc(-c4ccc5nc(-c6cc(OC)ccc6OC)[nH]c5c4)[nH]c3c2)CC1` the growth percent was 85.8% (SRB; 10 µM, 48 h).
With `Cn1cncc1C1=CN(c2ncnc3[nH]cnc23)CCS1` the GI50 was 28.2 µM (CNS cancer).
For `O=C1NC(c2ccccc2)(c2ccccc2)C(=O)N1Cc1cn(-c2cc3ccccc3oc2=O)nn1`, the growth percentage was 86.5% (10 µM, CNS cancer cell line, NCI60).

Excerpt of the above:
`NNc1nc(-c2ccc(Cl)cc2)c2c(NC(=O)c3ccccc3)nnc-2[nH]1` has a cell growth of 96.8% (SRB; 10 µM, NCI60 single-dose screen; reference: untreated).
`O=C1NCCc2[nH]c(-c3ccncc3)cc21` has an IC50 of 4.57 µM (MTS; NCI60 panel).
